Experimental data from different studies.
Protocols differ between the studies behind these lines. ± marks the error that the study gave.
Polyprotein P1234 nsP2 protease domain: Polyprotein P1234, nsP2 protease domain (Chikungunya virus, UniProt Q5XXP4)
rep main protease: Replicase polyprotein 1ab, main protease (rep, Severe acute respiratory syndrome coronavirus 2, UniProt P0DTD1)
Spike glycoprotein: Spike glycoprotein (Severe acute respiratory syndrome coronavirus 2, UniProt P0DTC2)
tcdB: Toxin B (tcdB, Clostridioides difficile, UniProt P18177)

Molecule	tested on	assay	system	conditions	how to read	quantity	result
Nc1ncnc2c1ccn2C1CCN(C(=O)c2ccc(S(=O)(=O)F)cc2)CC1	Calmodulin-sensitive adenylate cyclase (cya, Bacillus anthracis, UniProt P40136)	cell-based activity, inhibitor	–	–	–	EC50	12 nM
Cn1cc(-c2ncc(C(=O)NCC=CS(C)(=O)=O)s2)cn1	Polyprotein P1234 nsP2 protease domain	time-dependent inhibitor	–	–	–	Ki	15 ± 1 µM
CC(C)(C)[C@@H]1NC(=O)O[C@@H]2CCC[C@H]2OC/C=C/C(F)(F)c2nc3ccccc3nc2O[C@@H]2C[C@@H](C(=O)N[C@]3(C(=O)NS(=O)(=O)C4(C)CC4)C[C@H]3C(F)F)N(C2)C1=O	rep main protease	reporter gene (mKate2), inhibitor	–	20 µM	–	inhibition	0.912%
Cn1cnc(Cn2c(=O)[nH]/c(=N\c3cc4cn(C)nc4cc3Cl)n(Cc3cc(F)c(F)cc3F)c2=O)n1	–	–	human, moderate renal impairment	oral, 375 mg, decreased GFR TEAE, mild severity	–	patients with adverse event	0%
CC(C)C[C@H](NC(=O)[C@@H](NC(=O)[C@@H](N)Cc1c[nH]cn1)[C@@H](C)O)C(=O)N[C@@H](CCC(=O)O)C(=O)N[C@@H](Cc1c[nH]c2ccccc12)C(=O)N[C@@H](CCCNC(=N)N)C(=O)N[C@@H](CCCNC(=N)N)C(=O)N[C@@H](Cc1c[nH]c2ccccc12)C(=O)O	Toxin B, glucosyltransferase domain (Clostridioides difficile, UniProt A0A9R0CDJ3)	glucosyltransferase activity, inhibitor, UDP-Glo glucosyltransferase luminescence	–	with: Rac1 and UDP-glucose	–	Ki	188 µM
C=C1C[C@@]23CC[C@H]4[C@@](C)(CCC[C@@]4(C)C(=O)O[C@@H]4O[C@H](CO)[C@@H](O)[C@H](O)[C@H]4O)[C@@H]2CC[C@]1(O[C@@H]1O[C@H](CO)[C@@H](O)[C@H](O)[C@H]1O)C3	Spike glycoprotein	binding, biolayer interferometry	–	–	–	Kd	1.21 µM
O=c1cc(-c2ccc(Oc3c(O)cc4oc(-c5ccc(O)cc5)cc(=O)c4c3O)cc2)oc2cc(O)cc(O)c12	rep main protease	reporter gene (mKate2), inhibitor	–	20 µM	–	inhibition	-0.035%
DAMGO	opioid receptor mouse	binding	CD-1 mouse brain	–	–	Ki	0.0014 ± 0.00056 µM
COc1ccc(C[C@@H]2c3cc(Oc4cc(C[C@@H]5c6cc(O)c(OC)cc6CCN5C)ccc4O)c(OC)cc3CCN2C)cc1	Spike glycoprotein	binding, biolayer interferometry	–	–	–	Kd	32.5 µM
CSCC[C@H](NC(=O)[C@@H](N)CCC(=O)O)C(=O)N[C@@H](Cc1c[nH]cn1)C(=O)N[C@@H](CCC(N)=O)C(=O)N[C@@H](Cc1c[nH]c2ccccc12)C(=O)N[C@@H](CCCNC(=N)N)C(=O)N[C@@H](CCCNC(=N)N)C(=O)N[C@@H](Cc1c[nH]c2ccccc12)C(=O)O	tcdB	enzyme activity, inhibitor	–	–	–	Ki	618 µM
COc1ccc(/C=C/c2cc(O)cc(O)c2)cc1O	Spike glycoprotein	binding, BLI	–	–	–	Kd	58.6 µM
CNC(=O)[C@@H](NC(=O)[C@H](CC(C)C)[C@H](O)C(=O)NO)C(C)(C)C	Daboia russelii venom proteases (SVMP)	protease activity, inhibitor	GA population	0.001 µM, with: azocasein substrate	baseline: venom alone	remaining activity	100%
Nc1ncnc2c([C@@H]3N[C@H](CO)[C@@H](O)[C@H]3O)c[nH]c12	Marburg virus	viral RNA in cell lysate	HeLa, Musoke	25 µM, 24 h	–	inhibition	59.8%
CC[C@H](C)[C@H](NC(=O)[C@H](CC(C)C)NC(=O)[C@H](Cc1c[nH]c2ccccc12)NC(=O)[C@H](CCC(N)=O)NC(=O)[C@@H](NC(=O)[C@H](Cc1ccccc1)NC(=O)[C@H](C)NC(=O)[C@H](CCCCNC(=O)COCCOCCNC(=O)COCCOCCNC(=O)CC[C@H](NC(=O)CCCCCCCCCCCCCCCCCCC(=O)O)C(=O)O)NC(=O)[C@H](CCC(N)=O)NC(=O)[C@H](C)NC(=O)[C@@H](NC(=O)[C@H](CCCCN)NC(=O)[C@H](CC(=O)O)NC(=O)[C@H](CC(C)C)NC(=O)C(C)(C)NC(=O)[C@@H](NC(=O)[C@H](CO)NC(=O)[C@H](Cc1ccc(O)cc1)NC(=O)[C@H](CC(=O)O)NC(=O)[C@H](CO)NC(=O)[C@@H](NC(=O)[C@H](Cc1ccccc1)NC(=O)[C@@H](NC(=O)CNC(=O)[C@H](CCC(=O)O)NC(=O)C(C)(C)NC(=O)[C@@H](N)Cc1ccc(O)cc1)[C@@H](C)O)[C@@H](C)O)[C@@H](C)CC)[C@@H](C)CC)C(C)C)C(=O)N[C@@H](C)C(=O)NCC(=O)NCC(=O)N1CCC[C@H]1C(=O)N[C@@H](CO)C(=O)N[C@@H](CO)C(=O)NCC(=O)N[C@@H](C)C(=O)N1CCC[C@H]1C(=O)N1CCC[C@H]1C(=O)N1CCC[C@H]1C(=O)N[C@@H](CO)C(N)=O	–	refers to: treatment-emergent vessel puncture site bruise	healthy subjects	4.5 mg, multiple ascending dose	–	subjects with adverse event	16.7%
CC(C)=CCc1cc2c(cc1O)O[C@H](c1ccc(O)cc1)CC2=O	Spike glycoprotein	binding, biolayer interferometry	–	–	–	Kd	43.8 µM
Cc1cc(C2CCCCC2)n(O)c(=O)c1	Angiotensin-converting enzyme 2 (ACE2, Homo sapiens, UniProt Q9BYF1)	spike protein binding	–	with: SARS-CoV-2 spike protein	–	AC50	2670 nM
Cn1cnc(Cn2c(=O)[nH]/c(=N\c3cc4cn(C)nc4cc3Cl)n(Cc3cc(F)c(F)cc3F)c2=O)n1	Cytochrome P450 2C19 (CYP2C19, Homo sapiens, UniProt P33261)	inhibitor	human liver microsomes	30 min preincubation, preincubation with NADPH, with: S-mephenytoin 60 µM	–	IC50	> 100 µM
COc1cccc(-c2nc(C(=O)NCC=CS(C)(=O)=O)c(C)[nH]2)c1	Polyprotein P1234 nsP2 protease domain	time-dependent inhibitor	–	–	–	Ki	5 ± 1.3 µM
CSCC[C@H](N)C(=O)N[C@@H](CC(=O)O)C(=O)N[C@H](C(=O)N[C@@H](CCC(N)=O)C(=O)N[C@@H](Cc1c[nH]c2ccccc12)C(=O)N[C@@H](CCCNC(=N)N)C(=O)N[C@@H](CCCNC(=N)N)C(=O)N[C@@H](Cc1c[nH]c2ccccc12)C(=O)O)[C@@H](C)O	tcdB	enzyme activity, inhibitor	–	–	–	Ki	832 µM

A few entries again:
Molecule	tested on	assay	system	conditions	how to read	quantity	result
Nc1ncnc2c1ccn2C1CCN(C(=O)c2ccc(S(=O)(=O)F)cc2)CC1	Calmodulin-sensitive adenylate cyclase (cya, Bacillus anthracis, UniProt P40136)	cell-based activity, inhibitor	–	–	–	EC50	12 nM
